Published values of several laboratories.
Protocols differ between the studies behind these lines. Numbers after ± are the reported error.

O=C(NCc1cc(F)cc(F)c1)[C@@]1(O)CCN(c2ccc3[nH]ccc3c2)C1=O — IC50 (Ovarian PDX-derived tumour cells; colony formation, soft agar clonogenic; 8-10 days): 36 nM
CC1(C)CC(=O)C2=C(C1)Oc1cc(O)ccc1C2c1c[nH]c2ccccc12 (stereo not shown) — IC50 (3T3-L1 pre-adipocytes; cell viability, MTT; 72 h): 70.3 ± 1.04 µg/mL
CCOC(=O)/C=C1\S/C(=N\N=C\c2cccc3cc4ccccc4nc23)N(c2ccc(F)cc2)C1=O — IC50 (PATU; cell proliferation, MTT; 48 h): > 50000 nM
CCOc1cncc(-c2ccc(NC(=O)C3(c4ccnc(NS(=O)(=O)C5CC5)n4)CCOCC3)nc2)n1 — IC50 (JURL-MK2; cell proliferation, CellTiter-Glo; 72 h, myeloid haematological cancer): 649 nM
CCn1nc(Cl)c2c1-c1cnc(N)c(c1)O[C@H](C)c1cc(F)ccc1-c1nn(C)cc1C2 — IC50 (Ba/F3 EML4-ALK variant 3; cell viability): 1.6 nM
Cn1ncc(-c2ccc3c(=O)[nH]nc(CN)c3c2)c1-c1c(F)c(Cl)cc(OC2CC2)c1C#N — IC50 (PK-1 MTAP deleted; cell viability; 240 h): 7.1 nM
CC(C)CN(CC(=O)N1CCN(CC(OCc2ccc3ccccc3c2)c2ccc(Cl)cc2Cl)CC1)CC(C)C (stereo not shown) — IC50 (MDA-MB-468; cell growth or viability, MTT; 24 h): 4680 nM
Cc1cnc(Nc2ccc3c(c2)CCN(C(=O)/C=C/C(=O)c2ccc(Cl)cc2)C3)nc1-c1cnn(C(C)C)c1 — IC50 (MDA-MB-231/ADR doxorubicin-resistant; cell viability, MTT): 370 ± 20 nM
O=S(=O)(N[C@H]1CCC[C@@H](N2c3ccccc3CCc3ccccc32)[C@@H]1O)c1ccc(OC(F)(F)F)cc1 — IC50 (E98; cell viability, CellTiter-Glo; 72 h): 10000 nM
C=CC(=O)N1CC2C(=O)N(CCN(C)C)c3c(c4cc(Cl)c(-c5c(O)cccc5F)nc4n(-c4c(C)ccnc4C(C)C)c3=O)N2CC1C (stereo not shown) — IC50 (NCI-H2122; cell growth or viability): 56.4 nM
CCOC(=O)c1ccc(NC(=O)Nc2ccc(C(F)(F)F)cc2)cc1 — IC50 (LAD2; degranulation): 2770 nM
O=C1C(=O)N(CN2CCc3c([nH]c4ccccc34)C2C(F)(F)F)c2ccc(F)cc21 (stereo not shown) — IC50 (HEK293-A GFP-LC3B; LC3B puncta formation; 22 h, together with: chloroquine, torin1): > 20000 nM
CN1C(=O)CS/C1=N\N=C\c1cccc2cc3ccccc3nc12 — IC50 (PATU; cell proliferation, MTT; 48 h): 30900 ± 6700 nM
Cc1ccc([N+](=O)[O-])cc1S(=O)(=O)N(C)/N=C/c1cnc2ccc(Br)cn12 — IC50 (LOX IMVI; cell growth or viability): 73 nM
N#Cc1c(N)nc2c(c1-c1ccccc1)Cc1cc(O)ccc1-2 — IC50 (HH; cell growth or viability, ATP luminescence): 15200 nM
CC(=O)c1cnc(N)nc1N1CC[C@H]1c1nn2ccc(Cl)c2c(=O)n1-c1ccccc1 — IC50 (basophils; CD63 upregulation, inhibitor; human whole blood; PI3K delta response, together with: IgE): 37 nM
CC1(C)CC(=O)C(C2C3=C(CC(C)(C)CC3=O)Oc3ccc4ccccc4c32)=C(O)C1 (stereo not shown) — IC50 (3T3-L1 pre-adipocytes; cell viability, MTT; 72 h): 100 to 1000 µg/mL
CCCN1C(=O)CS/C1=N\N=C\c1cccc2cc3ccccc3nc12 — IC50 (PATU; cell proliferation, MTT; 48 h): 24200 ± 3900 nM
COc1ccc(C([O-])=CC(=O)c2ccc(C(C)(C)C)cc2)cc1.[Cl-].[Ru+2].c1ccc(-c2cccc(-c3ccccn3)n2)nc1 — IC50 (DU-145; cytotoxicity; dark): 650 nM
O=C(O)C(CO)NCc1cc(Cl)c(OCc2cccc(-c3ccccc3)c2Br)cc1OCc1cccnc1 (stereo not shown) — IC50 (MC-38; cell growth or viability, MTT): > 10000 nM
O=C(NC1(O)C(=O)c2ccccc2C1=O)c1cnn(-c2ccccc2)c1C(F)(F)F — IC50 (HEK293-A GFP-LC3B; LC3B puncta formation; 22 h, together with: chloroquine, torin1): > 20000 nM
CC(C)c1ccc(N(C)c2ccc3c(c2)OCC[C@H]3CNc2cnccc2C(=O)O)cc1 — IC50 (MES-SA; cell growth or viability, ATP luminescence; 7 days): 14.3 nM
CC1(C)CC(=O)C(C2C3=C(CC(C)(C)CC3=O)Oc3ccc(Cl)cc32)=C(O)C1 (stereo not shown) — IC50 (3T3-L1 pre-adipocytes; cell viability, MTT; 72 h): 56.5 ± 1.07 µg/mL
O=C(CCl)c1ccccc1Nc1cccc(C(F)(F)F)c1 — IC50 (HEK293A LATS1/2 double knockout; TEAD reporter gene, GTIIC luciferase; 24 h): 7010 nM
CNS(=O)(=O)Nc1nccc(Cc2c(C)c3ccc(Oc4ncccc4F)cc3oc2=O)c1F — IC50 (OE21; cell viability; 7 days): 47.2 nM
COc1ccc2c(c1)C(n1nnc3ccccc31)C1=C(CCCC1=O)O2 (stereo not shown) — IC50 (3T3-L1 pre-adipocytes; cell viability, MTT; 72 h): > 100 µg/mL
CCN(C(=O)c1cc(F)ccc1Oc1nncnc1N1CCC2(C1)CN(C(CCCN(C)CCOC)C(C)C)C2)C(C)C (stereo not shown) — IC50 (MV4-11 (KMT2A-AF4, FLT3-ITD); mRNA level, QuantiGene multiplex, item: PBX3; concentration not given): 762 ± 65 nM
C=CC(=O)N1CCCC(n2c(=O)c3ncccc3n(Cc3ccc(Oc4ccccc4)cc3)c2=O)C1 (stereo not shown) — IC50 (HH; cell growth or viability, MTT; 72 h): 15000 nM

Repeated from above:
O=C(NC1(O)C(=O)c2ccccc2C1=O)c1cnn(-c2ccccc2)c1C(F)(F)F — IC50 (HEK293-A GFP-LC3B; LC3B puncta formation; 22 h, together with: chloroquine, torin1): > 20000 nM
